# Results of several laboratories.
# Every numbered part comes from another study and shows a few of its results, in no order. Changes are numbered by the printed parent chain.

# Set 1
# Target: Ras GTPase-activating protein-binding protein 1, C-terminal RGG region (G3BP1, Homo sapiens, UniProt Q13283)
# Sequence of UniProt Q13283 (whole entry, looked up): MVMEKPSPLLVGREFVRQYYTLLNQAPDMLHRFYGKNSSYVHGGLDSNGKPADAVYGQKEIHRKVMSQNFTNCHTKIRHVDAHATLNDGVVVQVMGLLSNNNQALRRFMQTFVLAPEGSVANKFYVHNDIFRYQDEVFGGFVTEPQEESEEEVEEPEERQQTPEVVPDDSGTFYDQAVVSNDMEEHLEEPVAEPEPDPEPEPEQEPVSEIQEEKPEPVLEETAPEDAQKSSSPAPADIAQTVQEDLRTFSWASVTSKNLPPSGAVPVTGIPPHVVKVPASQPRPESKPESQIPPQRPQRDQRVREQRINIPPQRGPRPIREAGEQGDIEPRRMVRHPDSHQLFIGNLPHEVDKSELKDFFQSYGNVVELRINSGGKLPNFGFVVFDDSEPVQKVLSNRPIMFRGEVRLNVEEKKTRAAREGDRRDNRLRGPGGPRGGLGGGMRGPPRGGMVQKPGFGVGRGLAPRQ
# Technique: RNA Bind-n-Seq
# Form: RNA
# Sample: in vitro
# Concentration: 1 µM
# Setting: whole 134-nt RNA, ends assumed
# Together with: 150 mM KCl
# Baseline: input library
# Reading: higher = stronger binding
# Shared flanks, not repeated: GGGAGUUCUACAGUCCGACGAUC … UGGAAUUCUCGGGUGUCAAGG
Strand,log2 enrichment
GUCCUGUGCUACACAUCGUAUGUACCGAAUCGGGAAAAAGGGGAAAAAGGGAAAAAGGAAAGUAUUAUGUUACGCCGUUCGGAUCUGCAC,-1.06
UACUAUCAAACAAUCGGAAACCACGCGUCCUACUACAAAGAUGCUCUGCGGUUUUUGGGCUGUGUUGACAUCAAGGAUCUACCAGGUAAC,-1.1
CAAGUCCUGUGCUACACAUCGUAUGUACCGAAUCGGGCCCGGCCCGGGCCCGGGGAAAGUAUUAUGUUACGCCGUUCGGAUCUGCACUUC,-2.18
CCUGUGCUACACAUCGUAUGUACCGAAUCGGGGUUUUUUUGGGGUUUUUGGGGAAAGGGGAAAGUAUUAUGUUACGCCGUUCGGAUCUGC,0.135
UAACUUUAGAGGAGGAUCUGAUGGAUAUGGCAGUGGACGUGGAUUUGGGGAUGGCUAUAAUGGGUAUGGAGGAGGACCUGGAGGUGGGAA,-0.437
AAGUCCUGUGCUACACAUCGUAUGUACCGAAUCGGGUUUUGGGUUUUGGGUUUUGGGAAAGUAUUAUGUUACGCCGUUCGGAUCUGCACU,0.86
UGAAGACUAUGAGACUGCUCUAUCAGGAAAGGAAGCCCUUUCGGCUGCGCUGCGCUCACAAAACCUCACCAAGAGUACAGAGAACCACAG,-0.123
UUCCCUCUGUUUUAUUUUUCCCCCGUGUGUCCCUACUAUGGUCAGAAAGCCUGUUGUGUCCACCAUCUCCAAAGGAGGUUACCUGCAGGG,-0.17

# Set 2
# Target: Prothrombin, mature alpha-thrombin (F2, Homo sapiens, UniProt P00734)
# Technique: aptamer microarray, sandwich
# Form: DNA with 2'F-ANA
# Sample: in vitro
# Concentration: 200 nM
# Setting: whole 15-mer aptamer, many near background
# Together with: Cy3 exosite-II aptamer, 400 nM
# Reading: higher = stronger binding
# Strand: GGTTGGTGTGGTTGG
Modification,mean fluorescence intensity
2'F-ANA at 3 4 8 12 15,1200 a.u.
2'F-ANA at 1 5 6 9 12,226 a.u.
2'F-ANA at 1 2 5 6 8 10 15,237 a.u.
2'F-ANA at 1 3 4 5 6 7 8 10 11 13 14 15,55.1 a.u.
2'F-ANA at 1 2 3 5 10 12 13 14,45.6 a.u.
2'F-ANA at 1 3 4 5 6 7 8 9 10,49.3 a.u.
2'F-ANA at 1 2 3 5 7 10 11 12 13,53 a.u.
2'F-ANA at 1 4 8 9 10 12 13 14,49.4 a.u.

# Set 3
# Target: TAR DNA-binding protein 43, full length, His tag (TARDBP, Homo sapiens, UniProt Q13148, residues 1-414)
# Technique: RNA Bind-n-Seq
# Form: RNA
# Sample: in vitro
# Concentration: 20 nM
# Setting: 6-mer, flanks averaged, single round
# Together with: 150 mM LiCl
# Baseline: input library
# Reading: higher = stronger binding
Strand,6-mer enrichment (R)
UAUCCU,0.895
GCAGUC,0.879
GAUCAA,0.824
CUCGUA,0.825
AAAGUU,0.871
AGCUUA,0.856
GGUGGG,1.57
AACGUC,0.818

# Further values, each from its own experiment
# Parent: viral docking peptide; TSVRRALFTGGSD
Substitution,target,assay,test system,conditions,how to read,measurement,result
V3D,"CCNE2, cyclin fold, Cln2 fusion (human)","yeast growth competition, sequencing",yeast,strong parent motif,"baseline: not given, higher = stronger binding",normalised enrichment score,0.0597

# Repeated from above (set 1):
Strand,log2 enrichment
CCUGUGCUACACAUCGUAUGUACCGAAUCGGGGUUUUUUUGGGGUUUUUGGGGAAAGGGGAAAGUAUUAUGUUACGCCGUUCGGAUCUGC,0.135
UAACUUUAGAGGAGGAUCUGAUGGAUAUGGCAGUGGACGUGGAUUUGGGGAUGGCUAUAAUGGGUAUGGAGGAGGACCUGGAGGUGGGAA,-0.437
AAGUCCUGUGCUACACAUCGUAUGUACCGAAUCGGGUUUUGGGUUUUGGGUUUUGGGAAAGUAUUAUGUUACGCCGUUCGGAUCUGCACU,0.86
UGAAGACUAUGAGACUGCUCUAUCAGGAAAGGAAGCCCUUUCGGCUGCGCUGCGCUCACAAAACCUCACCAAGAGUACAGAGAACCACAG,-0.123
